Assay results of several laboratories.
Compare with care: the assays were run in different laboratories. Values joined by “and” are separate records of one study, mostly repeats; a detail may differ. ± marks the error that the study gave.
NF-kappa-B inhibitor alpha: NF-kappa-B inhibitor alpha (Homo sapiens, UniProt P25963)
Sequence of UniProt P25963 (whole entry, looked up): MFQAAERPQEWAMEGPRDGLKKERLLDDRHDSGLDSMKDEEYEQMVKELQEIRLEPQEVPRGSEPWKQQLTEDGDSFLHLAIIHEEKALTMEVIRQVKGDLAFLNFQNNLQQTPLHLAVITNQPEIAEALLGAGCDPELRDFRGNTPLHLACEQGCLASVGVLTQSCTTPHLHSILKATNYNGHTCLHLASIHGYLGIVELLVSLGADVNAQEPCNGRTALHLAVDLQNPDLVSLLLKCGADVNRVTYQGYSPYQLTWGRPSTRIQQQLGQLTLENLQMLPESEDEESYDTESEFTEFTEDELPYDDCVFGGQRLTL
SET Y135C: Protein SET (SET, Homo sapiens, UniProt Q01105, Y135C)
Sequence of UniProt Q01105 (whole entry, unmodified, looked up): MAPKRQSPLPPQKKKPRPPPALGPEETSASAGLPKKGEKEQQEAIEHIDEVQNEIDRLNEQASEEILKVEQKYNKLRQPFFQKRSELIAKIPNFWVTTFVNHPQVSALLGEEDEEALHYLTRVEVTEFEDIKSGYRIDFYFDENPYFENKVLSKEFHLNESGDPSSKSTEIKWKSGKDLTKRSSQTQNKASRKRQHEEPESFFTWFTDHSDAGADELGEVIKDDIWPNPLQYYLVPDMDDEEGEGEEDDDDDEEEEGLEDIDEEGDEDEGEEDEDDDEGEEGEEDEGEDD
TOP2A: DNA topoisomerase 2-alpha (TOP2A, Homo sapiens, UniProt P11388)
Sequence of UniProt P11388 (whole entry, looked up): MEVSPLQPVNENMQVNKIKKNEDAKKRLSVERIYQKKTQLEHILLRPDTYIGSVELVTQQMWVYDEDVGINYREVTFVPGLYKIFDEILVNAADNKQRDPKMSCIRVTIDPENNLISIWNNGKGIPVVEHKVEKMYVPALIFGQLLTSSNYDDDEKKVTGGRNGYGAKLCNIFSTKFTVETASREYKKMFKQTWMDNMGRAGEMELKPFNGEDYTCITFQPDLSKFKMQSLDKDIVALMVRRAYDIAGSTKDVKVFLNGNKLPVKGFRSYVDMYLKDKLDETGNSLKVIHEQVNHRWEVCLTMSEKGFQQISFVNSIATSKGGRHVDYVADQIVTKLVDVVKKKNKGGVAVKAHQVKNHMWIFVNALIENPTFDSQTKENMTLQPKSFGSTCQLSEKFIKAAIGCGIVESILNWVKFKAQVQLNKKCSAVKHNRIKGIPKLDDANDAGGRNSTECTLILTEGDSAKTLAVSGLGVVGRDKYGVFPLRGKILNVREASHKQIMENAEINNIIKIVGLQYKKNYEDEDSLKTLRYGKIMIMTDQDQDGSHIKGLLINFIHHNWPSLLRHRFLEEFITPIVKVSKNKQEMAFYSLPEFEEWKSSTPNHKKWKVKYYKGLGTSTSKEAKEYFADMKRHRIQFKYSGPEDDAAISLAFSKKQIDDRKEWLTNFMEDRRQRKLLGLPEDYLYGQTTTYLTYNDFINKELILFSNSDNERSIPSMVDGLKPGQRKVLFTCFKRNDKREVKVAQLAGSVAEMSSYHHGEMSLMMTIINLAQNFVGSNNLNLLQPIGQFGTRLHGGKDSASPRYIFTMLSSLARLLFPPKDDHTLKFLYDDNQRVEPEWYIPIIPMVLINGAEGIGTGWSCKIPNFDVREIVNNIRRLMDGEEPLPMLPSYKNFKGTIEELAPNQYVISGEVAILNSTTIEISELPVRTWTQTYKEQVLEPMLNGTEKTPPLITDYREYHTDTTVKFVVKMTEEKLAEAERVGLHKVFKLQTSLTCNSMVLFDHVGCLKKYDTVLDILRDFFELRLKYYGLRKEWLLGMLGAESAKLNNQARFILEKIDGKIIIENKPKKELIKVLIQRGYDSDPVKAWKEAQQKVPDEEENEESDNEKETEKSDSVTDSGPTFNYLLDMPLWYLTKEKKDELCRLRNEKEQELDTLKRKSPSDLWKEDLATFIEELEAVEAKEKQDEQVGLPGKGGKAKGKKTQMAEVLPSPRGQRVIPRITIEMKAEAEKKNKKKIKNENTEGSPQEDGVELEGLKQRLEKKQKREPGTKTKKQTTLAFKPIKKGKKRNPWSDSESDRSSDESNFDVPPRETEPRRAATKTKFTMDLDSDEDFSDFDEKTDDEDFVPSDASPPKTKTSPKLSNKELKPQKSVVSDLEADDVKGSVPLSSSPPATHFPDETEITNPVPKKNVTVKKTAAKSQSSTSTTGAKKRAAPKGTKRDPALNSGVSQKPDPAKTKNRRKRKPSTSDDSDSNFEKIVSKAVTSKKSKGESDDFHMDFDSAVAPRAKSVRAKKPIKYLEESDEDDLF
Aryl hydrocarbon receptor: Aryl hydrocarbon receptor (Danio rerio, UniProt Q9YGV3)
Sequence of UniProt P27487 (whole entry, looked up): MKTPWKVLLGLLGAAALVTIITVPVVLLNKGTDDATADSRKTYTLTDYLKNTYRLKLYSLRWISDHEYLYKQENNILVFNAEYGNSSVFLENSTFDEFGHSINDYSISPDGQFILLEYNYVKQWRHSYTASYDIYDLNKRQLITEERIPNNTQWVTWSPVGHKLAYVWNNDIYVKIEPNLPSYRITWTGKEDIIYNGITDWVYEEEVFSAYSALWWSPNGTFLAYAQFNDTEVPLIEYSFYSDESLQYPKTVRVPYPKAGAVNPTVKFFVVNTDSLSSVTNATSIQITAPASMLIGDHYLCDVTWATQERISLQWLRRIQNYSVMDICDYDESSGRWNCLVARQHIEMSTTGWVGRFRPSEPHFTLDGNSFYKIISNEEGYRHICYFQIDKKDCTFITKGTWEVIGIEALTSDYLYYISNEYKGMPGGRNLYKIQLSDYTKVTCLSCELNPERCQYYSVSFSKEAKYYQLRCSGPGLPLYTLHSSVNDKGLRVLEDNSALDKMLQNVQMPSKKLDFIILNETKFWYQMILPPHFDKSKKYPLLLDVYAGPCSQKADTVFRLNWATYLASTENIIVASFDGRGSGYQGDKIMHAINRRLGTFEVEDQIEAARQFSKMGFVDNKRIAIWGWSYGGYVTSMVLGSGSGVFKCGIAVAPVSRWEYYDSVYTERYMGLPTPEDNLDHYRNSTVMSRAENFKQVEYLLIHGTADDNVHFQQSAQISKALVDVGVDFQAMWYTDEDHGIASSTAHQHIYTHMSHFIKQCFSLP
Sequence of UniProt O76090 (whole entry, unmodified, looked up): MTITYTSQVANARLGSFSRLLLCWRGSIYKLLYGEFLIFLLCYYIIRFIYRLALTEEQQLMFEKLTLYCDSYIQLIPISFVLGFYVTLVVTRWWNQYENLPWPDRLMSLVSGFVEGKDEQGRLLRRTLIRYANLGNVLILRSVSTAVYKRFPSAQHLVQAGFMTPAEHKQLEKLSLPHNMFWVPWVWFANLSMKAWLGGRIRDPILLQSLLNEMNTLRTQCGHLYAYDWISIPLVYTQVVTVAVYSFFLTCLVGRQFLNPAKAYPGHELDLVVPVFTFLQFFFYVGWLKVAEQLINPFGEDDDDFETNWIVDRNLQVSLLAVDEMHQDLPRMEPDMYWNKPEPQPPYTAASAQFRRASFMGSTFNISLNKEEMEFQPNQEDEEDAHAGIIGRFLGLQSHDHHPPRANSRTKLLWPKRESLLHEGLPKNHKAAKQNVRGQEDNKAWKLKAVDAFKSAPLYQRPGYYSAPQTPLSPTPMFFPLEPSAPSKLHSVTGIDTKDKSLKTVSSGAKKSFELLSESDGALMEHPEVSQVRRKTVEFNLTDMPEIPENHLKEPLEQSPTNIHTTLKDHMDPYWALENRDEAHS
Sequence of UniProt P51575 (whole entry, unmodified, looked up): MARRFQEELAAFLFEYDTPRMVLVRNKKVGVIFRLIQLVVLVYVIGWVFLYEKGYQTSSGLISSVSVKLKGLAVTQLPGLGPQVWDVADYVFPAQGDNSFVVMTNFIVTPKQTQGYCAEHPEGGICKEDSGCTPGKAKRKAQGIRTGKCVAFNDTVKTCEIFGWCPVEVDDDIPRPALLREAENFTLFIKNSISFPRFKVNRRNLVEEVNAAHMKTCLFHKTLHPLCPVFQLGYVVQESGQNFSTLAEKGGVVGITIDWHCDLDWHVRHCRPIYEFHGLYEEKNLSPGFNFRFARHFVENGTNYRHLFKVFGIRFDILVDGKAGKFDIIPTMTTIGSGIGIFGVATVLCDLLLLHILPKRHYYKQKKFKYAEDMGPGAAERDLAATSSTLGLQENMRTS
Sequence of UniProt Q9Y6G9 (whole entry, looked up): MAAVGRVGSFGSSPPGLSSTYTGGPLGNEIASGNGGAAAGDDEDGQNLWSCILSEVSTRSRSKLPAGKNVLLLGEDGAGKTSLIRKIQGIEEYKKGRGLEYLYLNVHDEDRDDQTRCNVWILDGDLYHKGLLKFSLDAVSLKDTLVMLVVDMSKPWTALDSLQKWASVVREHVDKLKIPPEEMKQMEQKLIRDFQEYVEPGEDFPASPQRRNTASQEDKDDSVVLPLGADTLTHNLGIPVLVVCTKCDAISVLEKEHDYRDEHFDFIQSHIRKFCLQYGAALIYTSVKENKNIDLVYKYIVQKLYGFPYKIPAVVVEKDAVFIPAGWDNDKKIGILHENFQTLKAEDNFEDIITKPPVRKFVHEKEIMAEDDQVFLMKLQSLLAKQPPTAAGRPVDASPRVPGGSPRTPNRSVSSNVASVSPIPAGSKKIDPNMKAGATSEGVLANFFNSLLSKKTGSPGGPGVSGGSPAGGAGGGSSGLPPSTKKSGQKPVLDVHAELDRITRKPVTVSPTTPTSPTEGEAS
Sequence of UniProt P0AC13 (whole entry, unmodified, looked up): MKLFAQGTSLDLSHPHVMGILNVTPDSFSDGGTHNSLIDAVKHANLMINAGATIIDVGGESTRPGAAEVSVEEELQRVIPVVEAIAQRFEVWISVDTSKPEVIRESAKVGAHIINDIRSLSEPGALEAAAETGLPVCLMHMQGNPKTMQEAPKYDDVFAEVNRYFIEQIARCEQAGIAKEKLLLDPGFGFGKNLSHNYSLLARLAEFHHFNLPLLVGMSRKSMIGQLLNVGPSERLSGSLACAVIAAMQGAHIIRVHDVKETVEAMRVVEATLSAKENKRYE
Sequence of UniProt P54292 (whole entry, looked up): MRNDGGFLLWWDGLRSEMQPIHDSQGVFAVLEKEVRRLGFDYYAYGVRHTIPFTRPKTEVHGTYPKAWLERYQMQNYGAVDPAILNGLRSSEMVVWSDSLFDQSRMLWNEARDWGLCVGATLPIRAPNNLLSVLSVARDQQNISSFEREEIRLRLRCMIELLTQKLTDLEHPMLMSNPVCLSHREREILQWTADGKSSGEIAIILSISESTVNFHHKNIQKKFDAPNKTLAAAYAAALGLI

SMILES	tested on	assay	test system	setting	how to read	endpoint	value
CCC1(CC)NC(=O)c2c(c3ccc(Cl)c(Cl)c3n2C)C1C#N (stereo not shown)	Serine/threonine-protein kinase VRK3 (VRK3, Homo sapiens, UniProt Q8IV63)	thermal stability, thermal shift		10 µM	higher = stronger binding	delta Tm	0 °C
Nc1ncnc2c1ncn2[C@@H]1O[C@H](COP(=O)(O)CP(=O)(O)OP(=O)(O)O)[C@@H](O)[C@H]1O	P2X purinoceptor 1 (P2RX1, Homo sapiens, UniProt P51575, D170A)	saturation binding	HEK293	79 nM		specific binding	507 CCPM and 221 CCPM and 222 CCPM
O=C(CCCCCCC(=O)Nc1ccccc1)NO	HDAC8 (Homo sapiens, UniProt Q9BY41)	ITC	Hepes buffer	pH 7.5		TΔS	2.1 kcal/mol
O=C(O)C1CCCNC1 (stereo not shown)	SLC6A6 (Homo sapiens, UniProt P31641, Y138A)	binding, microscale thermophoresis		15.6 µM, room temperature, with: 50 nM labelled protein	higher = more binding	normalised MST signal	0.433
CC[C@@H]1[C@H](F)C(=O)N[C@@H]1COc1nccc2cc(C(N)=O)c(OC)cc12	TLK1 (Homo sapiens, UniProt Q9UKI8)	ATP-site probe binding, ActivX profiling	THP-1 cell lysate	0.2 mM, Lys1 site		inhibition	4.8%
CC[C@H](C)[C@H](NC(=O)[C@H](CCCNC(=N)N)NC(=O)[C@H](Cc1c[nH]cn1)NC(=O)[C@H](CCCNC(=N)N)NC(=O)[C@H](CC(=O)O)NC(=O)[C@H](CC(=O)O)NC(=O)[C@@H](NC(=O)[C@H](CC(=O)O)NC(=O)[C@@H]1CCCN1C(=O)[C@@H](N)CC(C)C)[C@@H](C)O)C(=O)N[C@@H](CCC(=O)O)C(=O)N[C@@H](CCC(=O)O)C(=O)N[C@@H](CCCCN)C(=O)N[C@@H](CCCNC(=N)N)C(=O)N[C@@H](CCCCN)C(=O)N[C@@H](CCCNC(=N)N)C(=O)N[C@H](C(=O)N[C@@H](Cc1ccc(O)cc1)C(=O)N[C@@H](CCC(=O)O)C(=O)N[C@H](C(=O)N[C@@H](Cc1ccccc1)C(=O)N[C@@H](CCCCN)C(=O)N[C@@H](CO)C(=O)N[C@@H](C)C(=O)N[C@@H](CCSC)C(=O)N[C@@H](CCCCN)C(=O)N[C@@H](CCCCN)C(=O)N[C@@H](CO)C(=O)N1CCC[C@H]1C(=O)N[C@@H](Cc1ccccc1)C(=O)N[C@@H](CC(N)=O)C(=O)NCC(=O)N1CCC[C@H]1C(=O)O)[C@@H](C)O)[C@@H](C)O	NF-kappa-B inhibitor alpha	binding, ITC		pH 7.5, 293 K, 50 mM NaCl		ΔH	-7.3 ± 0.2 kcal/mol
Cn1cc(-c2ccc(-c3cncc(Cl)c3N3CCC4(CCNC4=O)CC3)cc2)cn1	COLO 205	gene expression, microarray, refers to: SAT1 mRNA		concentration not given, 2 h	relative to: untreated cells	log2 fold change	4.06
N#Cc1ccc(C[C@@H](NC(=O)c2cc3ccccc3[nH]2)C(=O)N2CCc3ccccc32)cc1	FPR2 (Homo sapiens, UniProt P25090)	cell-based		concentration not given		activity	inactive
O=C(CCCc1ccccc1)C(=O)NCCc1ccc(Oc2ccc(C(F)(F)F)cn2)cc1	DPP4 (Homo sapiens, UniProt P27487)	inhibitor, FP-biotin chemoproteomics	HepG2	concentration not given	relative to: DMSO, lower = stronger inhibition	probe-enriched protein abundance	29000 a.u. and 29200 a.u. and 27200 a.u.
CC[C@H](C)[C@H](NC(=O)[C@H](CCCNC(=N)N)NC(=O)[C@H](Cc1c[nH]cn1)NC(=O)[C@H](CCCNC(=N)N)NC(=O)[C@H](CC(=O)O)NC(=O)[C@@H](N)CC(=O)O)C(=O)N[C@@H](CCC(=O)O)C(=O)N[C@@H](CCC(=O)O)C(=O)N[C@@H](CCCCN)C(=O)N[C@@H](CCCNC(=N)N)C(=O)N[C@@H](CCCCN)C(=O)N[C@@H](CCCNC(=N)N)C(=O)N[C@H](C(=O)N[C@@H](Cc1ccc(O)cc1)C(=O)N[C@@H](CCC(=O)O)C(=O)N[C@H](C(=O)N[C@@H](Cc1ccccc1)C(=O)N[C@@H](CCCCN)C(=O)N[C@@H](CO)C(=O)N[C@H](C(=O)N[C@@H](CCSC)C(=O)N[C@@H](CCCCN)C(=O)N[C@@H](CCCCN)C(=O)N[C@@H](CO)C(=O)N1CCC[C@H]1C(=O)N[C@@H](Cc1ccccc1)C(=O)N[C@@H](CC(N)=O)C(=O)NCC(=O)N1CCC[C@H]1C(=O)O)[C@@H](C)CC)[C@@H](C)O)[C@@H](C)O	NF-kappa-B inhibitor alpha	binding, ITC		293 K, 150 mM NaCl		ΔH	-4.3 ± 0.2 kcal/mol
CCCCCCCCCCCCC/C=C/[C@@H](O)[C@H](CO)NC(=O)CCCCCCCCCCCCCCCCCCCCCCC	SET Y135C	lipid binding, GFP pull-down LC-MS/MS	A549 overexpressing GFP-tagged protein		relative to: eluate plus flow-through	lipid fraction bound	8%
Cc1ccc2ccc3ccccc3c2c1	AHR (Homo sapiens, UniProt P35869)	reporter gene, agonist, yeast LacZ reporter	Saccharomyces cerevisiae			maximum response	174 LacZ units
O=c1nc(SCc2cc(F)cc(C(F)(F)F)c2)nc(SCc2csc3ccc(Cl)cc23)[nH]1	TOP2A	DNA relaxation		15.6 µM, replicate 2		relaxed DNA	5.3%
O=C(COP(=O)(O)O)[C@@H](O)[C@H](O)[C@H](O)COP(=O)(O)O	DYNC1LI1 (Homo sapiens, UniProt Q9Y6G9)	thermal proteome profiling	HepG2 cell lysate	concentration not given, 57 over 37 °C	relative to: compound over control	thermal stability ratio	0.565 and 0.75 and 0.655
CCCCCCCCCCCCC/C=C/[C@@H](O)[C@H](CO)NC(=O)CCCCCCCCCCCCCCC	SET Y135C	lipid binding, GFP pull-down LC-MS/MS	A549 overexpressing GFP-tagged protein	unit not given	relative to: vector-transfected cells	bound endogenous lipid	0.4
C=CC(=O)N1CCC[C@@H](n2nc(-c3ccc(Oc4ccccc4)cc3)c3c(N)ncnc32)C1	ATM (Homo sapiens, UniProt Q13315)			10 µM		remaining activity	137%
COc1cccc(C(=O)C#Cc2ccc(O)c(OC)c2)c1	rhlR (Pseudomonas aeruginosa, UniProt P54292)	receptor binding		concentration not given, 1.5 h, with: BHL at 1:1 ratio	relative to: control	binding	64%
O=C(CNc1cccc2c1C(=O)N(C1CCC(=O)NC1=O)C2=O)NCCCCCCN1CCc2c(c3ccccc3n2Cc2ccc(C(=O)NO)cc2)C1 (stereo not shown)	HDAC6 (Homo sapiens, UniProt Q9UBN7)	degrader, western blot	MM1.S	1 µM, 24 h		degradation	95%
Nc1ccc(C(=O)O)cc1	BEST1, with wild-type BEST1 (Homo sapiens, UniProt O76090, A243T)	whole-cell patch clamp	HEK293 co-expressing WT and A243T mutant	concentration not given, membrane potential 20 mV		current density	5.51 pA/pF and 4.39 pA/pF and 6.8 pA/pF and 5.21 pA/pF and 2.32 pA/pF and 5.73 pA/pF and 1.76 pA/pF

SMILES	tested on	assay	test system	setting	how to read	endpoint	value
Cc1cc2ccccc2c2ccc3ccccc3c12	Aryl hydrocarbon receptor	reporter gene, agonist, luciferase reporter	ZF-4	3333.33 µM	relative to: vehicle control	fold change	4.32
CN(C)C/C=C/C(=O)Nc1ccc(C(=O)Nc2cccc(Nc3ncc(Cl)c(-c4c[nH]c5ccccc45)n3)c2)cc1	Cyclin-dependent kinase 7, with cyclin H, MAT1 (CDK7, Homo sapiens, UniProt P50613)	kinase activity, Kinase-Glo		concentration not given		normalized luminescence	1.08
CC1CCCN1c1nccc(-c2cnn3ncccc23)n1 (stereo not shown)	ABL1 (Homo sapiens, UniProt P00519, Q252H)	KINOMEscan		1 µM		remaining binding	100%
CC(=O)OCc1nn(C)c2nc(N)[nH]c(=O)c2c1=O	folP (Bacteria, UniProt P0AC13)	CETSA HiBiT	Escherichia coli, whole cells	concentration not given	relative to: whole cell over lysate ΔTm	target engagement efficiency	49.1%
O=C(O)c1ccc(Nc2ncc3c(n2)-c2ccc(Cl)cc2C(c2c(F)cccc2F)=NC3)cc1	Rsk3(h)	kinase activity		1 µM		remaining activity	76%
CC(C)[C@H](NC(=O)c1cc(-c2cnn3cc(-c4ccc(OCCN5CCCCC5)cc4)cnc23)cs1)C(F)(F)F	PLK1 (human)	radiometric kinase		15 nM	relative to: PLK1 over ULK1	relative inhibition	0.0114
CC[C@@H](C)[C@@H](NC(=O)[C@@H](Cc1ccc(O)cc1)NC(=O)[C@H]1CCCN1C(=O)[C@@H](CCCNC(=N)N)NC(=O)[C@H](N)Cc1c[nH]cn1)C(=O)N[C@H](C)C(=O)N[C@H](Cc1c[nH]cn1)C(=O)N[C@H](CCCNC(=N)N)C(=O)N[C@@H](C(=O)N[C@H](Cc1ccc(O)cc1)C(=O)N[C@H](CO)C(=O)N[C@H](Cc1ccccc1)C(N)=O)C(C)C	Transferrin receptor protein 1 (Tfrc, Mus musculus, UniProt Q62351)	flow cytometry	RAW264.7	24 h, pH 6, replicate 2, unit not given	relative to: 0 h	surface TFRC expression	0.986
O=c1nc(SCc2cc(F)cc(C(F)(F)F)c2)nc(SCc2ccc3nc(Cl)ccc3c2)[nH]1	TOP2A	decatenation		125 µM, replicate 2		decatenated DNA	0%
Cc1ncsc1-c1ccc(CNC(=O)[C@@H]2C[C@@H](O)CN2C(=O)[C@@H](NC(=O)C2(F)CC2)C(C)(C)C)c(OCCOCCOCCN2CCN(c3cc(-c4ccccc4O)nnc3N)CC2)c1	VHL-ElonginB-ElonginC complex human	ternary complex formation, fluorescence polarization		with: PBRM1 bromodomain 5		cooperativity factor	4.5
c1coc(-c2n[nH]cc2-c2ccnc3ccccc23)c1	Serine/threonine-protein kinase ATG1 (ATG1, Candida albicans, UniProt Q5A649)	kinase binding, MIB/MS competition	Candida albicans lysate	10 µM	relative to: DMSO, negative = stronger binding	log2 fold change	-0.06
[O-][S+]1CCCCS1 (stereo not shown)	SOD1 (Homo sapiens, UniProt P00441, G94A)	intact protein LC-MS	SOD1 G93A transgenic mice, whole blood	intravenous, 10 mg/kg, 12 h, mean of two mice		target engagement	41.4%
CN1C(=O)/C(=C2\Nc3ccccc3\C2=N/O)c2ccc(Br)cc21	Aryl hydrocarbon receptor	reporter gene, agonist, luciferase reporter	ZF-4	0.0064 µM	relative to: vehicle control	fold change	2.01
Cc1cnn2ncc(-c3ccnc(N(C)C)n3)c2c1	ABL1 (Homo sapiens, UniProt P00519, T315I)	KINOMEscan		1 µM		remaining binding	67%
CCCCCCCCCCCCC/C=C/[C@@H](O)[C@H](CO)NC(=O)CCCCCCCCCCCCCCCCCCC	Protein SET (SET, Homo sapiens, UniProt Q01105, K222D)	lipid binding, GFP pull-down LC-MS/MS	A549 overexpressing GFP-tagged protein	unit not given	relative to: vector-transfected cells	bound endogenous lipid	1.5
Cc1cccc2c1ccc1cc(C(C)C)ccc12	Aryl hydrocarbon receptor	reporter gene, agonist, luciferase reporter	ZF-4	123.5 µM	relative to: vehicle control	fold change	1.48
CCN1CCC[C@H]1CNC(=O)c1c(O)c(Cl)cc(Cl)c1OC	GPR52 (Homo sapiens, UniProt Q9Y2T5)	β-arrestin recruitment, TANGO luminescence		concentration not given	relative to: basal luminescence	log2 fold change	-0.113
Nc1ccc2ccc3cccc4ccc1c2c34	Aryl hydrocarbon receptor	reporter gene, agonist, luciferase reporter	ZF-4	1111.11 µM	relative to: vehicle control	fold change	1.96
Cc1cccc(N2CC(C(=O)O)CC2=O)c1 (stereo not shown)	Huntingtin (HTT, Homo sapiens, UniProt P42858)	binding, affinity selection mass spectrometry			relative to: other proteins in batch	fold enrichment	0.674

Repeated from above:
SMILES	tested on	assay	test system	setting	how to read	endpoint	value
CC[C@H](C)[C@H](NC(=O)[C@H](CCCNC(=N)N)NC(=O)[C@H](Cc1c[nH]cn1)NC(=O)[C@H](CCCNC(=N)N)NC(=O)[C@H](CC(=O)O)NC(=O)[C@@H](N)CC(=O)O)C(=O)N[C@@H](CCC(=O)O)C(=O)N[C@@H](CCC(=O)O)C(=O)N[C@@H](CCCCN)C(=O)N[C@@H](CCCNC(=N)N)C(=O)N[C@@H](CCCCN)C(=O)N[C@@H](CCCNC(=N)N)C(=O)N[C@H](C(=O)N[C@@H](Cc1ccc(O)cc1)C(=O)N[C@@H](CCC(=O)O)C(=O)N[C@H](C(=O)N[C@@H](Cc1ccccc1)C(=O)N[C@@H](CCCCN)C(=O)N[C@@H](CO)C(=O)N[C@H](C(=O)N[C@@H](CCSC)C(=O)N[C@@H](CCCCN)C(=O)N[C@@H](CCCCN)C(=O)N[C@@H](CO)C(=O)N1CCC[C@H]1C(=O)N[C@@H](Cc1ccccc1)C(=O)N[C@@H](CC(N)=O)C(=O)NCC(=O)N1CCC[C@H]1C(=O)O)[C@@H](C)CC)[C@@H](C)O)[C@@H](C)O	NF-kappa-B inhibitor alpha	binding, ITC		293 K, 150 mM NaCl		ΔH	-4.3 ± 0.2 kcal/mol
CCCCCCCCCCCCC/C=C/[C@@H](O)[C@H](CO)NC(=O)CCCCCCCCCCCCCCCCCCCCCCC	SET Y135C	lipid binding, GFP pull-down LC-MS/MS	A549 overexpressing GFP-tagged protein		relative to: eluate plus flow-through	lipid fraction bound	8%
Cc1ccc2ccc3ccccc3c2c1	AHR (Homo sapiens, UniProt P35869)	reporter gene, agonist, yeast LacZ reporter	Saccharomyces cerevisiae			maximum response	174 LacZ units
O=c1nc(SCc2cc(F)cc(C(F)(F)F)c2)nc(SCc2csc3ccc(Cl)cc23)[nH]1	TOP2A	DNA relaxation		15.6 µM, replicate 2		relaxed DNA	5.3%
O=C(COP(=O)(O)O)[C@@H](O)[C@H](O)[C@H](O)COP(=O)(O)O	DYNC1LI1 (Homo sapiens, UniProt Q9Y6G9)	thermal proteome profiling	HepG2 cell lysate	concentration not given, 57 over 37 °C	relative to: compound over control	thermal stability ratio	0.565 and 0.75 and 0.655
